Experimental data gathered from unrelated publications.
Each line is one published result; not all experiments were run side by side. “And” joins repeats or separate records; there may be more than shown. Numbers after ± are the reported error.
UniProt P33533, sequence (whole entry, looked up): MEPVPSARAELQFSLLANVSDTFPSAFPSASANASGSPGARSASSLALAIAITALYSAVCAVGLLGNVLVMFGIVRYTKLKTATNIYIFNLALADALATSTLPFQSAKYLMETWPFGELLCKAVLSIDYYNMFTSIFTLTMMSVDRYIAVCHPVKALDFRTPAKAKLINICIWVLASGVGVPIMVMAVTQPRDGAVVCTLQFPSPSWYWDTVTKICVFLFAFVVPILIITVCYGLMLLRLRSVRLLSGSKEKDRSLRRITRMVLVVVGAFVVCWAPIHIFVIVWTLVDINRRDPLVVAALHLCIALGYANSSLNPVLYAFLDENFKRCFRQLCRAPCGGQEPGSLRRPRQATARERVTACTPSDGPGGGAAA
UniProt P11544, sequence (whole entry, looked up): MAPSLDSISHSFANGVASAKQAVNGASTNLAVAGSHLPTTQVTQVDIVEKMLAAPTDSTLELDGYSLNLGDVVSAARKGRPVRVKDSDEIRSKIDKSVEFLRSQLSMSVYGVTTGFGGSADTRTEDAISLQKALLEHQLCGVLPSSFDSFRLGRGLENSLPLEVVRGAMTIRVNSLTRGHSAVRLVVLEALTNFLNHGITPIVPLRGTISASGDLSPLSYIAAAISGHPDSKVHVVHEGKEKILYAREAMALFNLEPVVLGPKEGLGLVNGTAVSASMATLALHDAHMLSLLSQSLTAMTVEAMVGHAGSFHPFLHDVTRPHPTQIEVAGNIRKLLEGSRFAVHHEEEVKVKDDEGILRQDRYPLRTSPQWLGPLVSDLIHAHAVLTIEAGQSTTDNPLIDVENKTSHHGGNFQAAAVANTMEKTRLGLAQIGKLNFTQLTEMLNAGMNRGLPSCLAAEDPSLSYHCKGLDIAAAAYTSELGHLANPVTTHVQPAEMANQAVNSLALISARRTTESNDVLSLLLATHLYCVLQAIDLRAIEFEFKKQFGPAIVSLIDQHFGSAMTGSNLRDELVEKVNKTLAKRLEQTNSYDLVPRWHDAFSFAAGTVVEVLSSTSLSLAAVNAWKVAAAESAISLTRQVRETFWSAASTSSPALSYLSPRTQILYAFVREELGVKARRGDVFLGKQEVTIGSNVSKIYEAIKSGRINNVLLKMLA
UniProt Q9H2G2, sequence (whole entry, looked up): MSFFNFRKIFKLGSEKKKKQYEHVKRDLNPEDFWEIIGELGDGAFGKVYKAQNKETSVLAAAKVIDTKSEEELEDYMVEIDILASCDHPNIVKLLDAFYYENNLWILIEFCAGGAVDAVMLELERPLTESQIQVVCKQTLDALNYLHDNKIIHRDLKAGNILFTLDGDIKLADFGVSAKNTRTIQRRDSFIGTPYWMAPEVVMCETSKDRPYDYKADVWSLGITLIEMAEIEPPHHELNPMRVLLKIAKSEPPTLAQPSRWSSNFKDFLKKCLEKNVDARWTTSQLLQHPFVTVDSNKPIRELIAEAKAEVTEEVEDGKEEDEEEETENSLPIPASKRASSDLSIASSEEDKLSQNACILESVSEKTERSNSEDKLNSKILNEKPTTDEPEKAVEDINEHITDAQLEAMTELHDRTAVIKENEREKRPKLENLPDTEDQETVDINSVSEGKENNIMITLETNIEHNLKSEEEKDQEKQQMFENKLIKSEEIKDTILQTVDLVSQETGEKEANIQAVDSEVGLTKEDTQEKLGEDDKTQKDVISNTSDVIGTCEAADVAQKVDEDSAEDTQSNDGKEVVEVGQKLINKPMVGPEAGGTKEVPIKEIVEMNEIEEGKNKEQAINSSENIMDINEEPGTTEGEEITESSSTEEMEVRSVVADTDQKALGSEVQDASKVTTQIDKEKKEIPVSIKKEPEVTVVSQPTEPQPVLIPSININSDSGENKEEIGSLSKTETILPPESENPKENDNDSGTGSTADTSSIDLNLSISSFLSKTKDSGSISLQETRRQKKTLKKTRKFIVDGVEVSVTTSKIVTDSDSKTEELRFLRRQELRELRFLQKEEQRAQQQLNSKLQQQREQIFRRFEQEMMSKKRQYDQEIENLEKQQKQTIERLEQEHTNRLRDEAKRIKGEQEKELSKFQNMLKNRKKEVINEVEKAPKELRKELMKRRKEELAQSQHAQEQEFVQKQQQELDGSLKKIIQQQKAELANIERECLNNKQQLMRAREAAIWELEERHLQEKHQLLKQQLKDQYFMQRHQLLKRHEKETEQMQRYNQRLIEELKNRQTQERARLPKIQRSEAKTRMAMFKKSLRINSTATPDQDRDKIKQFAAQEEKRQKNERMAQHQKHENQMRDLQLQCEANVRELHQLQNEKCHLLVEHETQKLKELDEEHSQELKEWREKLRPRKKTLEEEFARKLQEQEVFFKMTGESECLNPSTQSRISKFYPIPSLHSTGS
UniProt P35367, sequence (whole entry, looked up): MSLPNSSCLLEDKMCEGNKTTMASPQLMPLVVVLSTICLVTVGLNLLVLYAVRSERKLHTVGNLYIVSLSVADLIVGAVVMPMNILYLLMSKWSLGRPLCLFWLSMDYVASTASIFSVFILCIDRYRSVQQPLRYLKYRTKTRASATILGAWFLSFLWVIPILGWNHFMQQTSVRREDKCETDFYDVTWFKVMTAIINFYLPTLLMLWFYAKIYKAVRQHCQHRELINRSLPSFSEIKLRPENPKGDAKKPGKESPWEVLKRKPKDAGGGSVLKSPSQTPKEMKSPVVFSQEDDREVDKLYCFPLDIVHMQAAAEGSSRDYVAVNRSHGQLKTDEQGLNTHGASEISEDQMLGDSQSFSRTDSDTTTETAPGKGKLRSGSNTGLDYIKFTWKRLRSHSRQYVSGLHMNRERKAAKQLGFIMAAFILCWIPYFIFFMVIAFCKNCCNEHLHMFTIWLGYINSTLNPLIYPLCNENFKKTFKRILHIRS
UniProt Q14289, sequence (whole entry, looked up): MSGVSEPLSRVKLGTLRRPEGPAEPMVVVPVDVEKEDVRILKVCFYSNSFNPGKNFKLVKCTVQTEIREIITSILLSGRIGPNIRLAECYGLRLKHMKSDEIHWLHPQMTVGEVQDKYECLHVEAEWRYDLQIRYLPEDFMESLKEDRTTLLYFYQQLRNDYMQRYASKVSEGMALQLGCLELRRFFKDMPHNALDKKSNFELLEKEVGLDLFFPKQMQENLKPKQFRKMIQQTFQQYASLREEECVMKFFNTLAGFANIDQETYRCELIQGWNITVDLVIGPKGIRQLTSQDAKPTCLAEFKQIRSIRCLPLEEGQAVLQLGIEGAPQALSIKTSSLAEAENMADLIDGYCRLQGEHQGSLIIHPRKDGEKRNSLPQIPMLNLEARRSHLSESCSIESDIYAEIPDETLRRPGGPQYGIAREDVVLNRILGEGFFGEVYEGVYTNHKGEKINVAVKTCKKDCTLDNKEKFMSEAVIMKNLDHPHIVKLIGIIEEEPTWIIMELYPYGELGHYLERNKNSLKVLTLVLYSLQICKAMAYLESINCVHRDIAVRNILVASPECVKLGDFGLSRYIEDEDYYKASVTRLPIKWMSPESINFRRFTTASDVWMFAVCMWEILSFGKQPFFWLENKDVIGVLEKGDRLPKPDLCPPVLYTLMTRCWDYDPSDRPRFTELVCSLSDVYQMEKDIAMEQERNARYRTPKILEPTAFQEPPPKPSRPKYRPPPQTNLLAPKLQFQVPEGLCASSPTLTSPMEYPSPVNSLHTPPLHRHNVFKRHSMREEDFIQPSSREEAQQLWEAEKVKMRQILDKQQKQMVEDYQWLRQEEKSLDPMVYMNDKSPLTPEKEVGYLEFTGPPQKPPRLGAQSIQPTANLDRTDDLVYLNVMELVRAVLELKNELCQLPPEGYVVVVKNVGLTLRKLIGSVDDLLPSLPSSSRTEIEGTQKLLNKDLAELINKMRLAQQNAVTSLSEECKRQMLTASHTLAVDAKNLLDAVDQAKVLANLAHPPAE
UniProt Q9UNU6, sequence (whole entry, unmodified, looked up): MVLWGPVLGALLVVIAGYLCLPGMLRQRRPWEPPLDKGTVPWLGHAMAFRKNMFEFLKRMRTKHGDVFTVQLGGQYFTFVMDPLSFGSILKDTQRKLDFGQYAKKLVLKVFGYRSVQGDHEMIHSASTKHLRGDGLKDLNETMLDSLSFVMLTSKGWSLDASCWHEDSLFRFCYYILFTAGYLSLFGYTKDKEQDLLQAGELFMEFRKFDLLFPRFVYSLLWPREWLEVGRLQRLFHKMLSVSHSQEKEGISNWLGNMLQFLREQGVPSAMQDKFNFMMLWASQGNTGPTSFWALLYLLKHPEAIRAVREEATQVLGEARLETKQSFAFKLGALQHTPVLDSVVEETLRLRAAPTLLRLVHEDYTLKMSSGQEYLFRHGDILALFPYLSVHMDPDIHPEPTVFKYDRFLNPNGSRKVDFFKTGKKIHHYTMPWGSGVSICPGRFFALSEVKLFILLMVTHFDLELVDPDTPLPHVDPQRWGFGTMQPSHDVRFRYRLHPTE
UniProt P31749, sequence (whole entry, looked up): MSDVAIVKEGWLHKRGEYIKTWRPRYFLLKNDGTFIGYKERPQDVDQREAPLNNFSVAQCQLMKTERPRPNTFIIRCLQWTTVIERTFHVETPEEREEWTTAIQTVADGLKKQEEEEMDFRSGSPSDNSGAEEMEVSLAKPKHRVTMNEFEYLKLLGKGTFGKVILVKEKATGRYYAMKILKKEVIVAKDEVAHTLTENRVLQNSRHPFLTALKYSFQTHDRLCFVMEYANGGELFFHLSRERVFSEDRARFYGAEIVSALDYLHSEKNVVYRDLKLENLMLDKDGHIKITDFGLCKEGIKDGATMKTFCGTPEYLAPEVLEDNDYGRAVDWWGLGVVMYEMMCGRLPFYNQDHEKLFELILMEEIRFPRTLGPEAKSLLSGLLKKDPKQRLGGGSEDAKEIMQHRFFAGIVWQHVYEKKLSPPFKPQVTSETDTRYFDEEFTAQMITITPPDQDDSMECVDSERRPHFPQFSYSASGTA

| Structure (SMILES) | tested on | test | system | setting | how to read | endpoint | result |
| --- | --- | --- | --- | --- | --- | --- | --- |
| O=C(O)c1ccccc1/C=N/Nc1nc(-c2ccccc2Cl)cs1 | AKT1 (Homo sapiens, UniProt P31749) | enzyme activity, inhibitor |  | 1 µM |  | inhibition | 0.85% |
| Cc1cc(Nc2nc(C[C@@]3(C(=O)O)CCN(Cc4cccc(Cl)c4F)[C@H](C)C3)cc(C)c2F)[nH]n1 | HRH1 (Homo sapiens, UniProt P35367) | agonist |  | 10 µM |  | activation | -0.03% |
| O=C(N[C@@H]1c2ccccc2C[C@H]1N1CCCC1)c1ccc(-c2ccnc3[nH]ccc23)nc1 | MAP2K3 (Homo sapiens, UniProt P46734) | binding, competition with immobilised ligand |  | 3 µM |  | remaining binding | 12% |
| O=C1NC2(CC2)COc2ncc(F)cc2[C@H]2COCCN2c2ccn3ncc1c3n2 |  |  | Sprague-Dawley rat, female, adrenals | oral, 2.5 mg/kg/day, 4 weeks dosing, end of recovery |  | organ-to-brain weight ratio | 3.29 ± 0.3% |
| O=C(CF)N[C@H]1[C@H]([C@H](O)[C@H](O)CNC(=O)c2ccc(Oc3ccccc3)cc2)O[C@@](OCc2cccc(Cl)c2Cl)(C(=O)O)C[C@@H]1O | CD22 (Homo sapiens, UniProt P20273) | isothermal titration calorimetry |  |  |  | ΔH | -12.8 ± 0.88 kcal/mol |
| CS(C)(=O)=Nc1ccc(-c2ccc(-c3nc4cc(O[C@@H]5CO[C@H]6[C@@H]5OC[C@H]6O)[nH]c4cc3F)cc2)cc1 | MAP2K6 (Homo sapiens, UniProt P52564) | enzyme activity, inhibitor |  | 10 µM |  | inhibition | 5% |
| CC(C)(C)C(=O)OCOP(=O)(OCOC(=O)C(C)(C)C)C1CCCN(O)C1=O (stereo not drawn) | MCF7 |  |  |  |  | CC50 | 83.5 µM |
| O=C1NC(=O)c2c1c1cc(F)c[n+]3c1c1c2c2cc(O)ccc2[n]1[Ru-4]312([N]=C=S)[S+]3CC[S+]1CC[S+]2CC3 (stereo not drawn) | RPS6KA4 (Homo sapiens, UniProt O75676) | enzyme activity |  | 100 nM, human enzyme, added: 10 µM ATP | reference: untreated | remaining activity | 4% |
| CCCC[C@H]1CNCCN1C[C@@H]1CCCN1C[C@H](CC1CCCCC1)N1CCN(CCCC2CCCC2)[C@H]([C@H](C)CC)C1 | Oprd1 (Rattus norvegicus, UniProt P33533) | radioligand binding | rat brain membranes | 500 nM, pH 7.5, 25 °C, added: 2 nM [3H]DPDPE |  | remaining binding | 83.5% |
| O=C(O)c1ccc(-c2nc(-c3ccccc3Cl)c3sccn23)cc1 | 5-HT1B receptor | radioligand binding |  | 10 µM | reference: control | specific binding | 98.7% and 87.1% |
| CC(=O)N[C@H](C(=O)N[C@@H](CCCNC(=N)N)C(=O)NCC(=O)N[C@@H](CO)C(=O)N[C@@H](CS)C(=O)N[C@@H](CCCNC(=N)N)C(=O)N[C@@H](CCCCN)C(=O)N[C@@H](CCCNC(=N)N)C(=O)N[C@@H](CC(N)=O)C(=O)N[C@@H](CCCNC(=N)N)C(=O)N[C@@H](CO)C(=O)N1CCC[C@H]1C(=O)N[C@@H](CCC(=O)O)C(=O)N[C@@H](CCCNC(=N)N)C(N)=O)[C@@H](C)O | WDR5 (Homo sapiens, UniProt P61964) | binding, isothermal titration calorimetry |  | pH 7.0, 20 °C |  | ΔH | -18.7 kcal/mol |
| CC12CCC(=O)C=C1CCC1C2C=C(c2cccnc2)C2(C)C(=O)CCC12 (stereo not drawn) | 7-alpha-hydroxycholest-4-en-3-one 12-alpha-hydroxylase (Homo sapiens, UniProt Q9UNU6, W281F) | inhibitor |  | 80 µM, added: 7α-hydroxycholest-4-en-3-one 0.54 µM |  | remaining activity | 58.3 ± 1.8% |
| CN(C)[C@H]1C[C@@]23CC[C@@]4(O2)C(=CC[C@]2(C)[C@@H](c5ccc6ccncc6c5)CC[C@H]24)C=C3[C@@H](O)[C@@H]1O | PTK2B (Homo sapiens, UniProt Q14289) | ATP probe labelling, inhibitor, KiNativ profiling |  | 0.1 µM |  | inhibition | -4.3% |
| CC(C)[C@H]1NC(=O)C[C@H]2/C=C/CCSSC[C@@H](NC1=O)C(=O)N[C@H](Cc1cccc3ccccc13)C(=O)NCC(=O)O2 | SLK (Homo sapiens, UniProt Q9H2G2) | enzyme activity, inhibitor |  | 10 µM |  | inhibition | 8.1% |
| C=C(c1ccccc1)[C@@H](N)P(=O)(O)O | Phenylalanine/tyrosine ammonia-lyase (PAL, Rhodotorula toruloides, UniProt P11544) | inhibitor |  | 50 µM, added: L-Phe 5 mM |  | reaction rate reduction | 10% |

Some of these lines once more:
| Structure (SMILES) | tested on | test | system | setting | how to read | endpoint | result |
| --- | --- | --- | --- | --- | --- | --- | --- |
| CC12CCC(=O)C=C1CCC1C2C=C(c2cccnc2)C2(C)C(=O)CCC12 (stereo not drawn) | 7-alpha-hydroxycholest-4-en-3-one 12-alpha-hydroxylase (Homo sapiens, UniProt Q9UNU6, W281F) | inhibitor |  | 80 µM, added: 7α-hydroxycholest-4-en-3-one 0.54 µM |  | remaining activity | 58.3 ± 1.8% |
| O=C1NC(=O)c2c1c1cc(F)c[n+]3c1c1c2c2cc(O)ccc2[n]1[Ru-4]312([N]=C=S)[S+]3CC[S+]1CC[S+]2CC3 (stereo not drawn) | RPS6KA4 (Homo sapiens, UniProt O75676) | enzyme activity |  | 100 nM, human enzyme, added: 10 µM ATP | reference: untreated | remaining activity | 4% |
